{"data": "Experimental data gathered from unrelated publications", "note": "Each numbered part is a random draw from the data of one study; scales do not carry over between parts. Changes are numbered by the printed parent chain."}
{"data": "Set 1", "target": "CCNB2, cyclin fold, Cln2 fusion (human)", "technique": "yeast growth competition, sequencing", "sample": "yeast", "notes": "weak parent motif", "baseline": "not given", "reading": "higher = stronger binding", "starting sequence": "RB1 docking peptide (human); PKPLKKLRFDIEG"}
{"Substitution": "D10M", "normalised enrichment score": 0.823}
{"Substitution": "I11N", "normalised enrichment score": 0.724}
{"Substitution": "K5N", "normalised enrichment score": 0.35}
{"Substitution": "K5A L7A", "normalised enrichment score": 0.281}
{"Substitution": "I11R", "normalised enrichment score": -0.0887}
{"Substitution": "G13P", "normalised enrichment score": 0.422}
{"Substitution": "P1W", "normalised enrichment score": 1.07}
{"Substitution": "D10N", "normalised enrichment score": 0.341}
{"Substitution": "D10L", "normalised enrichment score": 0.363}
{"Substitution": "R8S", "normalised enrichment score": -0.043}
{"Substitution": "P3S", "normalised enrichment score": 0.725}
{"Substitution": "P3M", "normalised enrichment score": 0.542}
{"Substitution": "K2L", "normalised enrichment score": 0.529}
{"data": "Set 2", "target": "RNA binding protein fox-1 homolog 2, RRM domain, GST-SBP tag (RBFOX2, Homo sapiens, UniProt O43251-10, residues 100-194)", "technique": "RNA Bind-n-Seq", "molecule type": "RNA", "sample": "in vitro", "tested at": "365 nM", "notes": "natural RNA segment, single round, ends assumed", "baseline": "no-protein control", "reading": "higher = stronger binding", "shared flanks, not repeated": "GGGAGUUCUACAGUCCGACGAUC … UGGAAUUCUCGGGUGCCAA", "Target sequence (chain)": "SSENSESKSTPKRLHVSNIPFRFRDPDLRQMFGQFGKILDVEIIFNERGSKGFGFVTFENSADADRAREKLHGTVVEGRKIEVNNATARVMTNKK"}
{"Strand": "ACCUAGGCAUAGAAACCAGUCUCUUUGGUUUGUUUGUAUUAUGUUCUACAAUAUUAAAGAUCUAAAUACAAAGGAUAUAAUACAGUCUUGAAUCUAAAGUAAUUUGCUAA", "RBNS enrichment (R)": 0.444}
{"Strand": "UGGAAUUCAGCAGUUUUAUCCUGGCCUUGUACUUGCUUGUAUUGUAAAUGUGGAUUUUGUAGAUGUUAGGGUAUAAGUUGCUGUAAAAUUUGUGUAAAUUUGUAUCCACA", "RBNS enrichment (R)": 4.46}
{"Strand": "UUAAGAUAUUUUGAUUUCAAUAACAAAAAUAAUACAAGAGUUUAAUCUGUGGAUUAUGUUCCUGAUCAUUUGCAGUUAAGGAAUUUAAAUAAAUCACAUGUUAACGACAA", "RBNS enrichment (R)": 0.286}
{"Strand": "UCAUUCUCAGAAUUCGGUGUGCUGCCAACUUGAUGUUCCACCUGCCACAAACCACCAGGACUGAAAGAAGAAAACAGUACAGAAGGCAAAGUUUACAGAUGUUUUUAAUU", "RBNS enrichment (R)": 0.375}
{"Strand": "GUGCUGUGUCAUGAGGCAAAGCCCAGCCUGGCCCCACCCACAGCUCUGGCUUUGACUGACUCCUGGGGGAAGCUGCUGUGGCCCAGCUCCUCCCUCCUCAUCUUGCCGUC", "RBNS enrichment (R)": 0.265}
{"Strand": "UGUCAUUAGCUCCAAGUGUAAAUUUGGGUCAAGGAGACAGAAUAAUAAUGGGAAUCUCGGAGUUCGACACCAUAGUGACGUUCAGCGUCCUCUGAAUUGUGCUACAUCAG", "RBNS enrichment (R)": 0.181}
{"Strand": "CAUCAAGUUACGAAGUGAUUAAUUUCCUUCUCAGCAAACCUCCGGGAGGUUCCAGAAUGAGUUCUUCCUGACAGGUUGUCUUCACUGGGAGCGUGGGGCCCCCAGGCCCC", "RBNS enrichment (R)": 0.52}
{"Strand": "AGCCUAGGAGCAGCUGCAAUUGCACCUGAGGGACAGGCCCUAGAGUUUGGUGGCCCAAGUCCUGAACCCCUCUUAGACCAGGUGAGGUGCAGAGGUGGUUGCUGCUUCCA", "RBNS enrichment (R)": 0.499}
{"Strand": "CUGUAAAAUGUGUGUAAAUUUGUAUCCUUUACACAAGUUUAGUCUCUUACUCUGACACAUAGUAAUUGUGACAGCAGGGCUAAUGUUGAAGAAAAGUCAGAAGAAUCUUU", "RBNS enrichment (R)": 0.692}
{"Strand": "GAGAAGUUUGCCUUGGCAGCAAGUAUUUAUUGUUGACAUUAUUCAGAAUUAGUGAUAAUAAAAAGCAGAGUGAUUUUGGUCAAUUUUAUUAUUAAUUCUUAAAUUCCCUG", "RBNS enrichment (R)": 0.294}
{"Strand": "AGAAGAUGUCUGAGGUCCUCCUGAGCCCUGAAAUCUUGAUAAUCAGGAAUACCCAGGGUGGUGGGACUGACAUCAGGGGAGUGGCGUCUGCCCACCCCCCACCCUGUCCC", "RBNS enrichment (R)": 0.184}
{"Strand": "GAAGUGUGACACCAAGCAGGAGAGGAAGAAUGAUUUUCUUUGUACUUAGGUUUUCUAAGGACAUUGUUUUAAUCUGUAUCGUGCCAAAGUUGUAUCACUGUUAAACUUCU", "RBNS enrichment (R)": 0.62}
{"data": "Set 3", "target": "Fragile X messenger ribonucleoprotein 1, C-terminal low-complexity region (Fmr1, Mus musculus, UniProt P35922)", "technique": "RNA Bind-n-Seq", "molecule type": "RNA", "sample": "in vitro", "tested at": "200 nM", "notes": "whole 134-nt RNA, ends assumed", "added": "150 mM KCl", "baseline": "input library", "reading": "higher = stronger binding", "shared flanks, not repeated": "GGGAGUUCUACAGUCCGACGAUC … UGGAAUUCUCGGGUGUCAAGG"}
{"Strand": "UGGCCCUGGUGGCAUGCGGGGAGGAAGAGGUGGCCUAAUGGAUCGUGGUGGUCCCGGUGGAAUGUUCAGAGGUGGCCGUGGUGGAGACAG", "log2 enrichment": 0.414}
{"Strand": "UGUGCUACACAUCGUAUGUACCGAAUCGGGCCCCCCCGGGGCCCCCCCGGGCCCCCCCGGGGAAAGUAUUAUGUUACGCCGUUCGGAUCU", "log2 enrichment": -1.63}
{"Strand": "UAACUUUAGAGGAGGAUCUGAUGGAUAUUGCAGUGGACGUGGAUUUGGGGAUGGCUAUAAUGGGUAUGGAGGAGGACCUGGAGGUGGCAA", "log2 enrichment": 0.344}
{"Strand": "UAACUUUAGAGGAGGAUCUGAUGGAUAUGGCAGUGGACGUGGAUUUGGGGAUGGCUAUAAUGGGUAUGGAGCAGGACCUGGAGGUGGCAA", "log2 enrichment": 0.111}
{"Strand": "UGGGAGGUGGAUUUUGUUUAUUUUUUUAGCUCAUUUCCAGGGGUGGGAAUUUUUUUUUAAUAUGUGCCAUGAAUAAAGUUGUUUUUGAAA", "log2 enrichment": 0.202}
{"Strand": "AGUCCUGUGCUACACAUCGUAUGUACCGAAUCGGUUUGGUUUUUUUGGUUUUUUUGGAAAGUAUUAUGUUACGCCGUUCGGAUCUGCACU", "log2 enrichment": -0.814}
{"Strand": "AGUCCUGUGCUACACAUCGUAUGUACCGAAUCGGGCCCCGGGGCCCCGGGGCCCCGGAAAGUAUUAUGUUACGCCGUUCGGAUCUGCACU", "log2 enrichment": -0.0567}
{"data": "Set 4", "Molecule": "PhoQ, residues 284 288 289 292 302 303 SQSLSM", "technique": "Sort-seq", "item": "YFP reporter", "sample": "E. coli", "notes": "PhoQ-PhoP variant library", "added": "10 µM Mg2+", "baseline": "high Mg2+ state", "reading": "higher = stronger signaling"}
{"target": "PhoP, residues 12 14 15 18 19 GMGLL (Escherichia coli, UniProt P23836)", "fold induction": 2.97}
{"target": "PhoP, residues 12 14 15 18 19 QQAYL (Escherichia coli, UniProt P23836)", "fold induction": 12.4}
{"target": "PhoP, residues 12 14 15 18 19 LFHKL (Escherichia coli, UniProt P23836)", "fold induction": 0.864}
{"note": "For quick reference, copied from above (set 1):"}
{"Substitution": "I11R", "normalised enrichment score": -0.0887}
{"Substitution": "R8S", "normalised enrichment score": -0.043}
{"Substitution": "D10N", "normalised enrichment score": 0.341}
{"Substitution": "D10L", "normalised enrichment score": 0.363}
{"Substitution": "P3S", "normalised enrichment score": 0.725}
